{"data": "Assay results of several laboratories", "note": "A part holds a random share of what one study measured.", "UniProt P42336, sequence (whole entry, unmodified, looked up)": "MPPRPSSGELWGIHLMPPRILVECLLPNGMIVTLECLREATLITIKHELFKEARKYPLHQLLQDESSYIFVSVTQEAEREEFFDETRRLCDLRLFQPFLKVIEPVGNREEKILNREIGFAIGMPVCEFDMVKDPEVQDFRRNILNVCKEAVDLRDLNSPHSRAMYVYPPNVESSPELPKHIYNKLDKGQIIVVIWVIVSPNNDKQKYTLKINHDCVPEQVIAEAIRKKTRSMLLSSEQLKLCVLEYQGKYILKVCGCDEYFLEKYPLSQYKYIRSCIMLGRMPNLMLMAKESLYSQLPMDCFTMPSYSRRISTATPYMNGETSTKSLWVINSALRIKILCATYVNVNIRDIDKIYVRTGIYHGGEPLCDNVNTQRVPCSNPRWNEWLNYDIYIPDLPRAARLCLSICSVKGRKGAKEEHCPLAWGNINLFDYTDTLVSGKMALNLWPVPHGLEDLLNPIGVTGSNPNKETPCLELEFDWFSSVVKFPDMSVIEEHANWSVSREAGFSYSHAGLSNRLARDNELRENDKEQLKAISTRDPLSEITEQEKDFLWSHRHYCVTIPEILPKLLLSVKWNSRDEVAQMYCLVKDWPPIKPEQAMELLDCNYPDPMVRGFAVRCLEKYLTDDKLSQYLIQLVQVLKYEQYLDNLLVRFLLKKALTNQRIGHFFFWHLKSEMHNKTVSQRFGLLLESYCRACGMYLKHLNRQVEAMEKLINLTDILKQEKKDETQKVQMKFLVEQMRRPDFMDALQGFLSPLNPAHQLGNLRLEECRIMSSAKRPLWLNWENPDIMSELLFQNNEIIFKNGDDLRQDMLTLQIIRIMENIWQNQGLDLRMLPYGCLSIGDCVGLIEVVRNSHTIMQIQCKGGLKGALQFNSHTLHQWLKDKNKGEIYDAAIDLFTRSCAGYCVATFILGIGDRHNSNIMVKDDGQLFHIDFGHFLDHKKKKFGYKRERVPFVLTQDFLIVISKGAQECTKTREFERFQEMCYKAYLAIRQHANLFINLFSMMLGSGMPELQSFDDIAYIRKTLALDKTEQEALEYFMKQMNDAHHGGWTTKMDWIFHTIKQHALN", "UniProt Q9NRH2, sequence (whole entry, looked up)": "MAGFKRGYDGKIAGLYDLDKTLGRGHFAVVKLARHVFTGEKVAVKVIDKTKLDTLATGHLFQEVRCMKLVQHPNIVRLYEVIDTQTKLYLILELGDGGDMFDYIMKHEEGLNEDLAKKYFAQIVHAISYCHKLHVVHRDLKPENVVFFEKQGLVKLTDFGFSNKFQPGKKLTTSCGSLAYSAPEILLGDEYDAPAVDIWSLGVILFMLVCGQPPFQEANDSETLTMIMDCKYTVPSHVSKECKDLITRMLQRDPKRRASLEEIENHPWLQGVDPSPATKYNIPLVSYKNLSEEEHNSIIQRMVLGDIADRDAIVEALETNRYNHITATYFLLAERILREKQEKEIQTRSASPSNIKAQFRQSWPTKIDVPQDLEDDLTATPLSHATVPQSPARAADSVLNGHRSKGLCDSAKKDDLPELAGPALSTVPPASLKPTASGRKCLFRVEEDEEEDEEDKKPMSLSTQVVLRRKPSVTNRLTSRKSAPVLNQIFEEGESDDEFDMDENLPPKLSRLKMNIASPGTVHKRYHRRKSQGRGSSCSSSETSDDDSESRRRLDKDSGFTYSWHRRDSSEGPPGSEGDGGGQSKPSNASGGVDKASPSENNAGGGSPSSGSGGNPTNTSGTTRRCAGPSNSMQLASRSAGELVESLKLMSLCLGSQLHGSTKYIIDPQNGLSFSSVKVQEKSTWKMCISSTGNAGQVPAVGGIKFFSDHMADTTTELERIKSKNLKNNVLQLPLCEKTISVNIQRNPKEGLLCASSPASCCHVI", "UniProt Q8NG66, sequence (whole entry, looked up)": "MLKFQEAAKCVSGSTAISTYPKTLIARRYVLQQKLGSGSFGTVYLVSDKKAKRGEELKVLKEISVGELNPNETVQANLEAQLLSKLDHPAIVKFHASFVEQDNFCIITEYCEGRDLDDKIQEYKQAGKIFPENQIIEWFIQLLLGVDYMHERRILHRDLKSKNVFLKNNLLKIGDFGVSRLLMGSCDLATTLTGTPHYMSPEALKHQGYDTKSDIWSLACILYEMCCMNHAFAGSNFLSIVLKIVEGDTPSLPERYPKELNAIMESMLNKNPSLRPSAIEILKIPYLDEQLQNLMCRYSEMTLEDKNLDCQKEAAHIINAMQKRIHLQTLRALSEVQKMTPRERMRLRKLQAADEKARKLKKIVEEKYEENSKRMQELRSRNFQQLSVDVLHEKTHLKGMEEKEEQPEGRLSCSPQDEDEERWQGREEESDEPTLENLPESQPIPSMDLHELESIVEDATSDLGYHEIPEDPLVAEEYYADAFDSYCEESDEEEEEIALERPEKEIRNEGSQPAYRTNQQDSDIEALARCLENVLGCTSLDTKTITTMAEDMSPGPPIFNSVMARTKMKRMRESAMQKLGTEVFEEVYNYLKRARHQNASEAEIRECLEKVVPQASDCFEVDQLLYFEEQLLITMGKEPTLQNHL", "UniProt Q13043, sequence (whole entry, looked up)": "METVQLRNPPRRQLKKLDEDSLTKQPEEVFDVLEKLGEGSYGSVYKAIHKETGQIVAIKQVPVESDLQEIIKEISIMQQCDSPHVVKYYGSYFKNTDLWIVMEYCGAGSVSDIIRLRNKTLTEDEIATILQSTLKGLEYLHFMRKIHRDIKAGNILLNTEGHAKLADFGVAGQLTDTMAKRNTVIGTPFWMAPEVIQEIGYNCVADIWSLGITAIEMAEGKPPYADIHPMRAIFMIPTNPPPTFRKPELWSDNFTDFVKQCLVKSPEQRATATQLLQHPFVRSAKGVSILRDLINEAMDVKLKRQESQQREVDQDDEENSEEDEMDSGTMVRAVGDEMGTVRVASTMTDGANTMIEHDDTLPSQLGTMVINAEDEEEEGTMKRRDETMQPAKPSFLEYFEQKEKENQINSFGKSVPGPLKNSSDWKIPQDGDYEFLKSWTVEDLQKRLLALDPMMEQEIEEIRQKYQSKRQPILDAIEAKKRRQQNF", "UniProt P21802, sequence (whole entry, looked up)": "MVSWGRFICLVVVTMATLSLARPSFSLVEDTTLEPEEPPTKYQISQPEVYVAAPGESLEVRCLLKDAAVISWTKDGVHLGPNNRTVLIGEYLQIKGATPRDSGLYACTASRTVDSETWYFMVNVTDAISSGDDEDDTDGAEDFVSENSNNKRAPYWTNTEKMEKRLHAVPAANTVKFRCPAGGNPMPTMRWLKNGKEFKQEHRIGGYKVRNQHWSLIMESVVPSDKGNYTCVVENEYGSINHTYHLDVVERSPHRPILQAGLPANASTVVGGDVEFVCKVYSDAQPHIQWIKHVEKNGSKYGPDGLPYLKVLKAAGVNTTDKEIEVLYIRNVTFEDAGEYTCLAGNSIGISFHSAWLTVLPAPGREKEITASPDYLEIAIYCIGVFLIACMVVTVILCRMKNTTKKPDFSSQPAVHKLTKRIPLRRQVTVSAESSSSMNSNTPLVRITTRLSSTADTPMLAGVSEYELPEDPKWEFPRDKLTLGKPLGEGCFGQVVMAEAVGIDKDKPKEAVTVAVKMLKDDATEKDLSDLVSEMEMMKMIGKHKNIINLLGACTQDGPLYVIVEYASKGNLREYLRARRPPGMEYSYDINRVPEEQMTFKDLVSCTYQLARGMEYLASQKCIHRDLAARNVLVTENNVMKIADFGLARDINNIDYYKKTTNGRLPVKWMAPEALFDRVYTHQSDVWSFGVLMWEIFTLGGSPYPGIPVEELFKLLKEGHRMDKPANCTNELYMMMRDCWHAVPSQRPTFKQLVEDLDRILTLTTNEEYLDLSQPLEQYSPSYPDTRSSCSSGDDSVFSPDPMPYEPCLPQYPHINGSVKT", "UniProt O14733, sequence (whole entry, looked up)": "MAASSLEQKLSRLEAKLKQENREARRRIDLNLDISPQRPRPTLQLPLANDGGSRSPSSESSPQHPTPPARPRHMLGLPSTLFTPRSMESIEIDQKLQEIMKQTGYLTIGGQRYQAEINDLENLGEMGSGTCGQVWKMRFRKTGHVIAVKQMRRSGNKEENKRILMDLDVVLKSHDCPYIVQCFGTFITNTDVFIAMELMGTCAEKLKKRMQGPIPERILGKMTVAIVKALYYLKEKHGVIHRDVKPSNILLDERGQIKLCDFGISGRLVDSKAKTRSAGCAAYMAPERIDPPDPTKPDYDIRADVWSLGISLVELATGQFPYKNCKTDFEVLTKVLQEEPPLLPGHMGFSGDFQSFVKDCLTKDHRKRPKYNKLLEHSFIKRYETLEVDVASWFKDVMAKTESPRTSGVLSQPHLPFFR"}
{"data": "Sample 1", "organism": "Sarcocystis neurona", "effect on": "parasite growth", "tested at": "10 µM", "time": "96 h", "notes": "first screen"}
{"SMILES": "[H]/N=C(/NC)NCCC[C@H](N)C(=O)O", "inhibition": "-2.4%"}
{"SMILES": "COC(=O)C1=C(C)NC(C)=C(C(=O)OC)C1c1ccccc1[N+](=O)[O-]", "inhibition": "6.7%"}
{"SMILES": "O=c1c(O[C@@H]2O[C@H](CO)[C@H](O)[C@H](O)[C@H]2O)c(-c2ccc(O)c(O)c2)oc2cc(O)cc(O)c12", "inhibition": "3.2%"}
{"SMILES": "CCCC(=O)Nc1ccc(OCC(O)CNC(C)C)c(C(C)=O)c1 (centres unmarked)", "inhibition": "12.3%"}
{"SMILES": "CN(C)CCC[C@@]1(c2ccc(F)cc2)OCc2cc(C#N)ccc21", "inhibition": "20.2%"}
{"SMILES": "O=C(C1CCCCC1)N1CC(=O)N2CCc3ccccc3C2C1 (centres unmarked)", "inhibition": "26.9%"}
{"SMILES": "CC(C)[C@H]1CC[C@H](C(=O)N[C@H](Cc2ccccc2)C(=O)O)CC1", "inhibition": "-18.6%"}
{"SMILES": "Cn1nnc2c(C(N)=O)ncn2c1=O", "inhibition": "-3.4%"}
{"data": "Sample 2", "target": "Protein kinase C beta type, isoform beta-II (PRKCB, Homo sapiens, UniProt P05771)", "effect on": "enzyme activity", "action": "inhibitor", "tested at": "0.5 µM", "relative to": "control", "UniProt P05771, sequence (whole entry, looked up)": "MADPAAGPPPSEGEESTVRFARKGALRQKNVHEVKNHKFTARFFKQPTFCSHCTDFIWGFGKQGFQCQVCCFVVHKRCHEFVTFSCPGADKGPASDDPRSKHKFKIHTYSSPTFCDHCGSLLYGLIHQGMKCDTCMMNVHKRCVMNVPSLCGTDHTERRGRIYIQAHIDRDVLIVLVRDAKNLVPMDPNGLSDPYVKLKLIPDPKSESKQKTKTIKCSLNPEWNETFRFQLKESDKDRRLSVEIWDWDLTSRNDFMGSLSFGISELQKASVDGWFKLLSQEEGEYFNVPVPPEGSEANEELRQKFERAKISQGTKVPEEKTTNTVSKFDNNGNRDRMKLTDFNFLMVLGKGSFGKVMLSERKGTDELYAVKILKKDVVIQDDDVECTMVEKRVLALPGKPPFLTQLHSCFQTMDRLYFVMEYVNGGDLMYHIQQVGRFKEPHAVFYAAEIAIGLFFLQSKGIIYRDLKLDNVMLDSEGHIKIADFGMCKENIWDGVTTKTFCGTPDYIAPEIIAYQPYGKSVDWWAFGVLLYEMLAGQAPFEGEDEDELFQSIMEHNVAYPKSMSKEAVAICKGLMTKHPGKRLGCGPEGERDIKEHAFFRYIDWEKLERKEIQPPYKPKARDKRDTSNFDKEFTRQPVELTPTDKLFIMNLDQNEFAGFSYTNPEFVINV"}
{"Compound": "CC[n+]1c(/C=C/N(C)c2ccccc2)n(-c2ccccc2)c2ccc(-c3nc4ccccc4s3)cc21", "remaining activity [%]": 118}
{"Compound": "Cc1cc(Nc2nc(-c3ccccc3)nc3ccccc23)n[nH]1", "remaining activity [%]": 87.3}
{"Compound": "NC(=O)c1ccc(N(C(N)=O)c2c(F)cccc2F)nc1-c1ccc(F)cc1F", "remaining activity [%]": 94.6}
{"Compound": "O=C1NC(=O)C(c2c[nH]c3ccccc23)=C1c1c[nH]c2ccccc12", "remaining activity [%]": 42.9}
{"Compound": "CCc1[nH]c(-c2ccc(OC)cc2)nc1-c1ccncc1", "remaining activity [%]": 109}
{"Compound": "O=S(=O)(NCCNC/C=C/c1ccc(Br)cc1)c1cccc2cnccc12", "remaining activity [%]": 90.2}
{"Compound": "COc1ccc(S(=O)(=O)N(CCO)c2ccccc2CN(C)CC=Cc2ccc(Cl)cc2)cc1", "remaining activity [%]": 102}
{"Compound": "CCCC(=O)Oc1ccc2[nH]c(C(=O)c3cc4ccccc4[nH]3)cc2c1", "remaining activity [%]": 102}
{"Compound": "CC#CC(=O)Nc1cc2c(Nc3ccc(F)c(Cl)c3)ncnc2cn1", "remaining activity [%]": 99.5}
{"Compound": "Cc1ccc(NC2=CC(=O)c3sc(C)nc3C2=O)cc1", "remaining activity [%]": 93.8}
{"Compound": "CSc1nc(-c2ccnc(N[C@@H](C)c3ccccc3)c2)c(-c2ccc(F)cc2)[nH]1 (racemic)", "remaining activity [%]": 101}
{"Compound": "O=C1Cc2c([nH]c3ccc([N+](=O)[O-])cc23)-c2ccccc2N1", "remaining activity [%]": 105}
{"Compound": "Nc1nccc(-c2c(-c3ccc(F)cc3)ncn2C2CCNCC2)n1", "remaining activity [%]": 79.4}
{"Compound": "Fc1ccc(-c2nc3n(c2-c2ccncc2)CCS3)cc1", "remaining activity [%]": 87.2}
{"Compound": "Oc1ccc(Nc2nc(-c3ccc(Cl)cc3)cs2)cc1", "remaining activity [%]": 94.7}
{"Compound": "N#CC(=C(N)Sc1ccc(N)cc1)c1ccccc1C(F)(F)F", "remaining activity [%]": 103}
{"Compound": "COc1cc(Nc2c(C#N)cnc3cc(OCCCN4CCN(C)CC4)c(OC)cc23)c(Cl)cc1Cl", "remaining activity [%]": 88.4}
{"Compound": "Nc1nc(Nc2ccc(S(N)(=O)=O)cc2)nn1C(=O)c1c(F)cccc1F", "remaining activity [%]": 90.5}
{"Compound": "Nc1ncnc2c1cnn2-c1ccccc1", "remaining activity [%]": 96.5}
{"Compound": "Cc1cncc2cccc(S(=O)(=O)N3CCCN(C(=O)CN)C[C@@H]3C)c12", "remaining activity [%]": 91.3}
{"Compound": "CC(=O)c1ccc(N2CCOCC2)cc1O", "remaining activity [%]": 97.9}
{"Compound": "CC(C)(C)n1nc(Cc2cccc3ccccc23)c2c(N)ncnc21", "remaining activity [%]": 101}
{"data": "Sample 3", "Structure (SMILES)": "CCC(=N\\O)/C(C)=C/c1ccc(F)cc1", "effect on": "cell-free assay", "technique": "competition with immobilised ligand", "tested at": "1 µM"}
{"target": "SNRK (Homo sapiens, UniProt Q9NRH2)", "remaining binding": "100%"}
{"target": "MAP2K2 (Homo sapiens, UniProt P36507)", "remaining binding": "100%"}
{"target": "PIK3CA (Homo sapiens, UniProt P42336, H1047Y)", "remaining binding": "82%"}
{"target": "STK3 (Homo sapiens, UniProt Q13188)", "remaining binding": "100%"}
{"target": "KIT (Homo sapiens, UniProt P10721)", "remaining binding": "100%"}
{"target": "EGFR (Homo sapiens, UniProt P00533, del752-759)", "remaining binding": "59%"}
{"target": "TNK1 (Homo sapiens, UniProt Q13470)", "remaining binding": "66%"}
{"target": "PAK2 (Homo sapiens, UniProt Q13177)", "remaining binding": "82%"}
{"target": "NEK11 (Homo sapiens, UniProt Q8NG66)", "remaining binding": "100%"}
{"target": "CLK4 (Homo sapiens, UniProt Q9HAZ1)", "remaining binding": "100%"}
{"target": "HIPK1 (Homo sapiens, UniProt Q86Z02)", "remaining binding": "80%"}
{"target": "FGFR2 (Homo sapiens, UniProt P21802)", "remaining binding": "93%"}
{"target": "MAP2K7 (Homo sapiens, UniProt O14733)", "remaining binding": "79%"}
{"target": "CDKL5 (Homo sapiens, UniProt O76039)", "remaining binding": "82%"}
{"target": "MAP4K5 (Homo sapiens, UniProt Q9Y4K4)", "remaining binding": "80%"}
{"target": "STK4 (Homo sapiens, UniProt Q13043)", "remaining binding": "78%"}
{"data": "Sample 4", "cell line": "HH", "tested at": "2 µM", "time": "48 h", "relative to": "untreated"}
{"Compound": "Cc1cc(N2CCOCC2)cc2[nH]c(-c3c(NC[C@@H](O)c4cccc(Cl)c4)cc[nH]c3=O)nc12", "viability [%]": 81.6}
{"Compound": "Cc1cnc(Nc2ccc(OCCN3CCCC3)cc2)nc1Nc1cccc(S(=O)(=O)NC(C)(C)C)c1", "viability [%]": 40.9}
{"Compound": "COc1cc2ncc(-c3ccccc3)nc2cc1OC", "viability [%]": 61}
{"Compound": "CN(C)CCCn1cc(C2=C(c3c[nH]c4ccccc34)C(=O)NC2=O)c2ccccc21", "viability [%]": 64.9}
{"Compound": "O=C(NC[C@H](O)CO)c1ccncc1Nc1ccc(I)cc1F", "viability [%]": 72.2}
{"Compound": "Fc1cc(-c2cccc3ncc(-c4cnn(C5CCNCC5)c4)nc23)cc(F)c1CN1CCOCC1", "viability [%]": 69.9}
{"Compound": "Cc1[nH]nc2ccc(-c3cncc(OC[C@@H](N)Cc4ccccc4)c3)cc12", "viability [%]": 15.7}
{"Compound": "Clc1ccc(C2(c3ccc(-c4cn[nH]c4)cc3)CCNCC2)cc1", "viability [%]": 29.3}
{"Compound": "C=CC(=O)Nc1ccc2ncnc(Nc3cccc(Br)c3)c2c1", "viability [%]": 82.3}
{"Compound": "Cc1cc(CS(=O)(=O)c2ccccc2)cc(OCc2ccc(CN3CCC[C@@H]3CO)cc2)c1", "viability [%]": 95.2}
{"Compound": "CCOc1cc(N2CCC(O)CC2)ccc1Nc1ncc2c(n1)N(C)c1ccccc1C(=O)N2C", "viability [%]": 70.2}
{"Compound": "Cc1cc(C(C)Nc2ccccc2)c2nc(N3CCOCC3)cc(=O)n2c1 (centres unmarked)", "viability [%]": 89.5}
{"Compound": "Cc1ccc(-n2nc(C(C)(C)C)cc2NC(=O)Nc2ccc(OCCN3CCOCC3)c3ccccc23)cc1", "viability [%]": 73.1}
{"note": "Repeated from above (sample 4):"}
{"Compound": "Cc1[nH]nc2ccc(-c3cncc(OC[C@@H](N)Cc4ccccc4)c3)cc12", "viability [%]": 15.7}
{"Compound": "COc1cc2ncc(-c3ccccc3)nc2cc1OC", "viability [%]": 61}
{"Compound": "Clc1ccc(C2(c3ccc(-c4cn[nH]c4)cc3)CCNCC2)cc1", "viability [%]": 29.3}
{"Compound": "CCOc1cc(N2CCC(O)CC2)ccc1Nc1ncc2c(n1)N(C)c1ccccc1C(=O)N2C", "viability [%]": 70.2}
{"Compound": "O=C(NC[C@H](O)CO)c1ccncc1Nc1ccc(I)cc1F", "viability [%]": 72.2}
{"Compound": "Cc1cc(C(C)Nc2ccccc2)c2nc(N3CCOCC3)cc(=O)n2c1 (centres unmarked)", "viability [%]": 89.5}
{"Compound": "Cc1cc(N2CCOCC2)cc2[nH]c(-c3c(NC[C@@H](O)c4cccc(Cl)c4)cc[nH]c3=O)nc12", "viability [%]": 81.6}
